Published values from different studies.
Each numbered part is a random draw from the data of one study; scales do not carry over between parts. Substitutions count along the parent as printed.
Sequence of UniProt P50750 (whole entry, looked up): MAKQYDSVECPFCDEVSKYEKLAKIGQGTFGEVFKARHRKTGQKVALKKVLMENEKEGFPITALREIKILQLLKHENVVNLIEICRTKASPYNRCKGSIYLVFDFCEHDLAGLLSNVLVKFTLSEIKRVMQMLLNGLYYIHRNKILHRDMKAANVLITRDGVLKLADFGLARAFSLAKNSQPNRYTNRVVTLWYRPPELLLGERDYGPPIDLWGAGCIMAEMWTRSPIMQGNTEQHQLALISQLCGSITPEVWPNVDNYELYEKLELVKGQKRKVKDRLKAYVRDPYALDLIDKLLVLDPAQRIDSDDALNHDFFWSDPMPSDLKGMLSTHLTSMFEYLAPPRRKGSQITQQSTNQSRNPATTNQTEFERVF
Sequence of UniProt Q7KZI7 (whole entry, looked up): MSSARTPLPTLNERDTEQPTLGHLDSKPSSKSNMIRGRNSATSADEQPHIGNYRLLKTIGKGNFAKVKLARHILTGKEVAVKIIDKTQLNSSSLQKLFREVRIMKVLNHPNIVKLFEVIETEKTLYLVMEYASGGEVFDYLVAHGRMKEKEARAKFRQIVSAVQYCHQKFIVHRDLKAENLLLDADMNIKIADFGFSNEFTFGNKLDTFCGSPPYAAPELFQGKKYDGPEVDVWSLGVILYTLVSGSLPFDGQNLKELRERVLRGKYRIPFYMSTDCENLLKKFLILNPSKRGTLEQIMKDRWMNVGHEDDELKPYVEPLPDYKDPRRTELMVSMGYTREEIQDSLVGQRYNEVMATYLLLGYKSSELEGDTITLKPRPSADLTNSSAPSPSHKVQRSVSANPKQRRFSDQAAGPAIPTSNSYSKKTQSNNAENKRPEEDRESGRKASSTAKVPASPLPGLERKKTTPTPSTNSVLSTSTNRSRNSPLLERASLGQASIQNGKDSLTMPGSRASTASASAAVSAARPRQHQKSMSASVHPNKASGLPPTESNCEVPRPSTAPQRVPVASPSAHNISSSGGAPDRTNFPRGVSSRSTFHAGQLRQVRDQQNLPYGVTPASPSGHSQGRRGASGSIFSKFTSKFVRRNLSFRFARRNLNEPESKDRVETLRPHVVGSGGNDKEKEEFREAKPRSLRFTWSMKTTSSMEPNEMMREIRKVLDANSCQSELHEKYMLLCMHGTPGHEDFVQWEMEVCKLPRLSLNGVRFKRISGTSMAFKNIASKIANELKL
Sequence of UniProt P49761 (whole entry, looked up): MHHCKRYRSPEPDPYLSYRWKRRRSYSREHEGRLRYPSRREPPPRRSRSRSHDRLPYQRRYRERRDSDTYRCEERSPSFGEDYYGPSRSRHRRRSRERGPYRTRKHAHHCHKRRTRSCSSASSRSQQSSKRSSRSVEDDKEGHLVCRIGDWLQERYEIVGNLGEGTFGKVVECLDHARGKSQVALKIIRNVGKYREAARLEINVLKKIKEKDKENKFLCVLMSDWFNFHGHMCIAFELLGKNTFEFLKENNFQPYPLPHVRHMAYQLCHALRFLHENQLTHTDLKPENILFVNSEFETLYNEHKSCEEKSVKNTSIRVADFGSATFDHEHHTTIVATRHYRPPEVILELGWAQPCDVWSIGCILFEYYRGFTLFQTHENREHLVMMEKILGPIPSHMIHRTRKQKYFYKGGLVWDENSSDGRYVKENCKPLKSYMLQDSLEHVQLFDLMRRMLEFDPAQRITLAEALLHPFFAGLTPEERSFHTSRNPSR
Sequence of UniProt Q6P2M8 (whole entry, looked up): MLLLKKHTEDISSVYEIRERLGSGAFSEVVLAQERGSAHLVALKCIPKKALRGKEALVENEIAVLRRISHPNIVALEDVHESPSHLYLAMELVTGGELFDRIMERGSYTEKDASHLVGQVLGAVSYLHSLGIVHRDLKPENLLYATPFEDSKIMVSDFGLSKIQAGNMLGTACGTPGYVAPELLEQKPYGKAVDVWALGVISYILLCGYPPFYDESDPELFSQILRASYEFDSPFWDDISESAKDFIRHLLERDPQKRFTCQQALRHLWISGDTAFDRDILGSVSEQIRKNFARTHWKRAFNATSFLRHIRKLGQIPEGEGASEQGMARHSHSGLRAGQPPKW
Sequence of UniProt Q8TD19 (whole entry, looked up): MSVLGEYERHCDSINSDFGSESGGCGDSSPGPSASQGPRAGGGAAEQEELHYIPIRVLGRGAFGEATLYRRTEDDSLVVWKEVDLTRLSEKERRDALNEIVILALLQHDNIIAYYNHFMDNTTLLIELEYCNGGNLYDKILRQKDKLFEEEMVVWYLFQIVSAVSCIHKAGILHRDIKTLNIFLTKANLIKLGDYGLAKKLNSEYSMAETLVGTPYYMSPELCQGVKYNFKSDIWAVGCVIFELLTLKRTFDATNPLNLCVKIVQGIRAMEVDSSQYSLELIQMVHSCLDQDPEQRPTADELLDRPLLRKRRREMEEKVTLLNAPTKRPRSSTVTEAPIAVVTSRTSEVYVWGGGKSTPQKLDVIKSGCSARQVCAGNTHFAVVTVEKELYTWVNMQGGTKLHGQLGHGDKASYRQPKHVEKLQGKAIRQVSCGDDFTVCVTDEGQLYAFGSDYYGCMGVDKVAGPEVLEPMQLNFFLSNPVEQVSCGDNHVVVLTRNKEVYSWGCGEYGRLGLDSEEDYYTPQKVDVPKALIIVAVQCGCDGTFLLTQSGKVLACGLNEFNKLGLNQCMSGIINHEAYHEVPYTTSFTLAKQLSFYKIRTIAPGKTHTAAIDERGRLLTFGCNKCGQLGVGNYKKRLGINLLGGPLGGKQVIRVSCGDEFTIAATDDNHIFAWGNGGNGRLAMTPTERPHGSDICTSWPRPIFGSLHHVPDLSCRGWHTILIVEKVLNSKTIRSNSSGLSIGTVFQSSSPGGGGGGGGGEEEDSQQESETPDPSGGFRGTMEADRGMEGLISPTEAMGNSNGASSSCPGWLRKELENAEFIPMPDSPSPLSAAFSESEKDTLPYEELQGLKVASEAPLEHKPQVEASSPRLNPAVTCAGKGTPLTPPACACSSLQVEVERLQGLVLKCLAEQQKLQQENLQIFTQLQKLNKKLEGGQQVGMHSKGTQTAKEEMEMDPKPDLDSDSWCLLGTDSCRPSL
Sequence of UniProt P49674 (whole entry, looked up): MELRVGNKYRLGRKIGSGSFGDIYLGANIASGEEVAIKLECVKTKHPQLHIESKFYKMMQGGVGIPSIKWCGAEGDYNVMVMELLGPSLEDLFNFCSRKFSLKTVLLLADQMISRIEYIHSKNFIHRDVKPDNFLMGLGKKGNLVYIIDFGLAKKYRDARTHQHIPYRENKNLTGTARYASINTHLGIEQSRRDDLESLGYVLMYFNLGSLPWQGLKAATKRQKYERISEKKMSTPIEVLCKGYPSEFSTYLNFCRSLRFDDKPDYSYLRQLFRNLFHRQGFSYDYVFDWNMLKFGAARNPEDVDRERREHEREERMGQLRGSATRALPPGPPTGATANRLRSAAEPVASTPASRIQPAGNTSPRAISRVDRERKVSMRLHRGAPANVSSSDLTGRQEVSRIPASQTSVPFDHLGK
Sequence of UniProt Q9HAZ1 (whole entry, looked up): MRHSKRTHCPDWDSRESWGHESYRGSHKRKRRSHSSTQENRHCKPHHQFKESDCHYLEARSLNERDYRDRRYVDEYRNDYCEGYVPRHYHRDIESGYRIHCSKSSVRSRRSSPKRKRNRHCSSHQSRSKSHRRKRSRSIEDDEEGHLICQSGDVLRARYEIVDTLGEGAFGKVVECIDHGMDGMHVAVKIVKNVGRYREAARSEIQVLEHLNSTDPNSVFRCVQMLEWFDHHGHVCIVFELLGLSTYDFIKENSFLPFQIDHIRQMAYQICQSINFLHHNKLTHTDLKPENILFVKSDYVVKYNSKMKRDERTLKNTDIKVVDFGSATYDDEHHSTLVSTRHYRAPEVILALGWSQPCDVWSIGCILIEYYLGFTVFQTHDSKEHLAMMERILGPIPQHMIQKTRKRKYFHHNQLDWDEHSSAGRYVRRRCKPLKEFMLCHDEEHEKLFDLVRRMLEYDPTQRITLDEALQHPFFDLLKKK
Sequence of UniProt P42680 (whole entry, looked up): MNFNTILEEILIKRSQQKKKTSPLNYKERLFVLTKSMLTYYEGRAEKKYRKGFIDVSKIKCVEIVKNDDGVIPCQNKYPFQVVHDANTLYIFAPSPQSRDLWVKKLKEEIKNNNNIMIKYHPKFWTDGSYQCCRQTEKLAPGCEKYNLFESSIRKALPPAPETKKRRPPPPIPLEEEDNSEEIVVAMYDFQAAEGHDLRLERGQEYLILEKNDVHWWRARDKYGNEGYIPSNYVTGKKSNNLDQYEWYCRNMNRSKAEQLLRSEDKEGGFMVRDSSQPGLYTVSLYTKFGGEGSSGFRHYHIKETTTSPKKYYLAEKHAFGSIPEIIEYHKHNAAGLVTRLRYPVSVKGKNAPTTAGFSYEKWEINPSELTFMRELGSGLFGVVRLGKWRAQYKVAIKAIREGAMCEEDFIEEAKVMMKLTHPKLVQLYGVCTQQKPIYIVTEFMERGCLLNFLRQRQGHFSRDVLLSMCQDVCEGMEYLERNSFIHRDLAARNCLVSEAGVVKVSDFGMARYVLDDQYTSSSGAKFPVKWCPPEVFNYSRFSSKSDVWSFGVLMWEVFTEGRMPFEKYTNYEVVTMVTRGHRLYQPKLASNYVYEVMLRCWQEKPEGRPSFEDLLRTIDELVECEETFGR

Study 1
Target: CEP164, C-terminal peptide (human)
Method: DHFR complementation, deep sequencing
Matrix: yeast
Notes: single substitutions, model-inferred values
Baseline: wild type
Direction: higher = weaker binding
Starting sequence: PDZK1, PDZ domain 2 (human); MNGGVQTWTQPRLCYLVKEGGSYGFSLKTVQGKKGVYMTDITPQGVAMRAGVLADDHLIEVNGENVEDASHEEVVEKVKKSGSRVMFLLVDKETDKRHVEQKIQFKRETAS; partner HNRVKVYRF
`G21R` — result for “binding free energy change”: 0.0344 kcal/mol.
Under “binding free energy change”, `D55H` is recorded as 0.62 kcal/mol.
`Y15K` — result for “binding free energy change”: 0.103 kcal/mol.
`Y23E`: “binding free energy change” 1.06 kcal/mol.
Under “binding free energy change”, `E60N` is recorded as 0.189 kcal/mol.
Under “binding free energy change”, `S70A` is recorded as -0.119 kcal/mol.
Under “binding free energy change”, `I103C` is recorded as -0.0889 kcal/mol.
`E19I` — result for “binding free energy change”: 0.339 kcal/mol.

Study 2
SMILES: Cc1cn(-c2cc(NC(=O)c3ccc(C)c(Nc4nccc(-c5cccnc5)n4)c3)cc(C(F)(F)F)c2)cn1
Observed: enzyme activity
Action: inhibitor
Tested at: 0.5 µM
Baseline: control
The remaining activity was 101% (PNCK (Homo sapiens, UniProt Q6P2M8)).
DCLK2 (Homo sapiens, UniProt Q8N568) — remaining activity: 102%.
For TXK (Homo sapiens, UniProt P42681): remaining activity read 104%.
For CLK4 (Homo sapiens, UniProt Q9HAZ1): remaining activity read 45.5%.
It gave 97.9% for remaining activity (Cyclin-dependent kinase 9, with cyclin K (CDK9, Homo sapiens, UniProt P50750)).
For KDR (Homo sapiens, UniProt P35968): remaining activity read 92%.
It gave 1.77% for remaining activity (DDR2 (Homo sapiens, UniProt Q16832)).
It gave 111% for remaining activity (CLK3 (Homo sapiens, UniProt P49761)).
The remaining activity was 142% (MARK2 (Homo sapiens, UniProt Q7KZI7)).
The remaining activity was 105% (PLK3 (Homo sapiens, UniProt Q9H4B4)).

Study 3
SMILES: CCS(=O)(=O)c1cc2cc(C[C@](O)(CC(C)(C)c3ccc(F)cc3C(N)=O)C(F)(F)F)[nH]c2cn1
Observed: cell-free assay
Method: competition with immobilised ligand
Tested at: 1 µM
For Tyrosine-protein kinase ABL1, phosphorylated (ABL1, Homo sapiens, UniProt P00519, Y253F): remaining binding read 93%.
The remaining binding was 85% (TAOK2 (Homo sapiens, UniProt Q9UL54)).
It gave 99% for remaining binding (NEK9 (Homo sapiens, UniProt Q8TD19)).
It gave 100% for remaining binding (WNK4 (Homo sapiens, UniProt Q96J92)).
TEC (Homo sapiens, UniProt P42680) — remaining binding: 90%.
CASK (Homo sapiens, UniProt O14936) — remaining binding: 100%.
For EGFR (Homo sapiens, UniProt P00533, L858R/T790M): remaining binding read 83%.
It gave 95% for remaining binding (CSNK1E (Homo sapiens, UniProt P49674)).
WNK1 (Homo sapiens, UniProt Q9H4A3) — remaining binding: 97%.

Study 4
Target: Interferon regulatory factor 7, full length, phosphomimetic (IRF7, Homo sapiens, UniProt Q92985, residues 1-503, S101K/S471D/S472D/S475D/S476D/S477D/S483D/S484D/S487D)
Method: protein-binding microarray
Molecule type: double-stranded DNA, one strand shown
Matrix: in vitro
Tested at: 250 nM
Notes: 60-bp whole probe
Together with: salmon DNA 0.4 mg/ml
Baseline: random background probes
Direction: higher = stronger binding
Shared flanks, not repeated: GCCTAGCAC … GTCTTGATTCGCTTGACGCTGCTG
Residues (chain): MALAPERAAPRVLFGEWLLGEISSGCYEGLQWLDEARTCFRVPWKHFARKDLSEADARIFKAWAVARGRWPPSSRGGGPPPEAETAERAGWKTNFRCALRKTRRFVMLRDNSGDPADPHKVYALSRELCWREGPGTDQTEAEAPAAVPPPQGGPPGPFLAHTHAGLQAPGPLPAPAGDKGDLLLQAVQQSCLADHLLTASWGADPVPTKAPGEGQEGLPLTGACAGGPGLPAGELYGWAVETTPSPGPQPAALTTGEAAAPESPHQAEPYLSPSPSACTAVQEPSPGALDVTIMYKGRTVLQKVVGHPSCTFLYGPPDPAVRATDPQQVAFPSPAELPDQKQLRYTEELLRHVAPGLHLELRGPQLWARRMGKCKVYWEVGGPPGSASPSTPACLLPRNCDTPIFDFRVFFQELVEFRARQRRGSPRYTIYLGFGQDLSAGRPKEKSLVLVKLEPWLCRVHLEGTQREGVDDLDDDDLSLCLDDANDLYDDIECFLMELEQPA
The log fluorescence of `GACGATTCCAATTTCGAGACGTGCTAG` is reported as 1.03 z-score.
`TTAGATATCAGACTGGATTGGTGCTAG` gave a log fluorescence of -0.0308 z-score.
`TCACTTCTGGATTTTTTACTGTGCTAG` gave a log fluorescence of 0.688 z-score.
`CCAATTCTCTTTTCACTTTCGTGCTAG` gave a log fluorescence of 2.66 z-score.
`TTAGATCTCAGTAACGATTAGTGCTAG` has a log fluorescence of 0.398 z-score.
The log fluorescence of `TTAGTTATCGACTATCGGTTAGTGCTA` is reported as 0.189 z-score.
`TTCTGAATGCCCTCTAACTTCGTGCTA` has a log fluorescence of -0.351 z-score.
`TGAGTTTTCCTTCATGTGCCGTGCTAG` gave a log fluorescence of 1.31 z-score.

Excerpt of the above (study 3):
WNK1 (Homo sapiens, UniProt Q9H4A3) — remaining binding: 97%.
It gave 100% for remaining binding (WNK4 (Homo sapiens, UniProt Q96J92)).
It gave 95% for remaining binding (CSNK1E (Homo sapiens, UniProt P49674)).
